Measurements collected from several papers.
A part holds a random share of what one study measured.

Series 1 — technique: protein binding microarray; form: double-stranded DNA, one strand shown; matrix: in vitro; concentration: not given; reference: not given; reading: higher = stronger binding
Target: Histone acetyltransferase KAT6A, winged helix 2, GST fusion (KAT6A, Homo sapiens, UniProt Q92794, residues 85-181)
Notes: 8-mer, flanks averaged, mean of 2 arrays, mostly near background
Target sequence (chain): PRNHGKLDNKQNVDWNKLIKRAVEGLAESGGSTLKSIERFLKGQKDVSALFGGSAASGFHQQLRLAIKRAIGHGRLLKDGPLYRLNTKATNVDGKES
| Oligonucleotide | E-score |
| --- | --- |
| AATGCATC | -0.0578 |
| CGGGTAAG | -0.0894 |
| TAAATCTA | 0.0924 |
| CGCCGATC | 0.11 |
| CCATACCG | -0.0902 |
| GCATTAAC | 0.0688 |

Series 2 — technique: universal PBM; form: double-stranded DNA, one strand shown; matrix: in vitro; concentration: not given; reading: higher = stronger binding
Target: Sal-like protein 4, full length isoform B (SALL4, Homo sapiens, UniProt Q9UJQ4-2, residues 1-616)
Notes: 8-mer, flanks averaged, mean of replicates
Target sequence (chain): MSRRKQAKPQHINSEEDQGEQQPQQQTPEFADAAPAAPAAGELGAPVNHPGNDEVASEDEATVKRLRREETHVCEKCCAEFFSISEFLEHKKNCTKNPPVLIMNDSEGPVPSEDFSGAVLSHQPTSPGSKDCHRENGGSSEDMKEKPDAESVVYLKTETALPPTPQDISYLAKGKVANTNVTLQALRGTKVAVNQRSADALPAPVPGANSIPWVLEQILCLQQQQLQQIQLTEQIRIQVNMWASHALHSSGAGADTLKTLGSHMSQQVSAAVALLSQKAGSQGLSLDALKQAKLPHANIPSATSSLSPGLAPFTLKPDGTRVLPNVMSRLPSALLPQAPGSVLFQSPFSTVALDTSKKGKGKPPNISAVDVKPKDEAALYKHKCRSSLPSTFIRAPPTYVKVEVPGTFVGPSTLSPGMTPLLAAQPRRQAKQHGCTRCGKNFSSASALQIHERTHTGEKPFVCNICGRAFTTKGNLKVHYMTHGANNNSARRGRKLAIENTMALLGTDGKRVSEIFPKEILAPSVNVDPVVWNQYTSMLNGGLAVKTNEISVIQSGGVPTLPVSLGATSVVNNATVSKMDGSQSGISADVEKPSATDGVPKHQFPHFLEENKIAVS
| Oligonucleotide | E-score |
| --- | --- |
| GGAGTGAA | 0.0109 |
| ACACAACG | 0.166 |
| AACTCTCG | -0.155 |
| AGGCATCA | -0.048 |
| GCTGAGTA | -0.0759 |
| CCACGTGC | -0.179 |

Series 3 — technique: protein-binding microarray; form: double-stranded DNA, one strand shown; matrix: in vitro; concentration: 2540 nM top; notes: 60-bp whole probe; with: salmon DNA 0.4 mg/ml; reference: random background probes; reading: higher = stronger binding
Target: Interferon regulatory factor 3, full length, phosphomimetic (IRF3, Homo sapiens, UniProt Q14653, residues 1-427, S386D/S396D/S398D/S402D/T404D/S405D)
Residues (chain): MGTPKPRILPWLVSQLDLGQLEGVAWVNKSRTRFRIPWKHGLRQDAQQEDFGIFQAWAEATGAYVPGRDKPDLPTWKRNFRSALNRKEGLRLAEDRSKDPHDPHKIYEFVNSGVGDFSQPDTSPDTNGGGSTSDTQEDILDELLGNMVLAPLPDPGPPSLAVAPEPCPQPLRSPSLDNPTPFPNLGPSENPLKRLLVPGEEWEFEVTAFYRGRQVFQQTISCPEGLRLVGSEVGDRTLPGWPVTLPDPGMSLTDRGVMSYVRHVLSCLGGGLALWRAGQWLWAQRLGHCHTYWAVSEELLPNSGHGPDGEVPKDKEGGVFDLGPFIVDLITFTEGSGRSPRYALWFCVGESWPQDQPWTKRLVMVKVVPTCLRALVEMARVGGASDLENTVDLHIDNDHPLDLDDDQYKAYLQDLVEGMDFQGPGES
| Oligonucleotide | fitted relative affinity |
| --- | --- |
| GCCTAGCACTCAAGTGTCAATAATGACACTGTGCTAGTCTTGATTCGCTTGACGCTGCTG | -0.0799 z-score |
| GCCTAGCACATAGGTTTCGGGTTTCGGTTAGTGCTAGTCTTGATTCGCTTGACGCTGCTG | 6.46 z-score |
| GCCTAGCACTCAATTTTCTAAATGCCACTGTGCTAGGTCTTGATTCGCTTGACGCTGCTG | 1.07 z-score |

Other studies, line by line
| Molecule | target | test | system | setting | scale | endpoint | value |
| --- | --- | --- | --- | --- | --- | --- | --- |
| PhoQ, residues 284 288 289 292 302 303 SLGVVW | PhoP, residues 12 14 15 18 19 QWHVF (Escherichia coli, UniProt P23836) | Sort-seq, item: YFP reporter | E. coli | PhoQ-PhoP variant library, with: 10 µM Mg2+ | reference: high Mg2+ state, higher = stronger signaling | fold induction | 8.57 |

Repeated from above (series 3):
| Oligonucleotide | fitted relative affinity |
| --- | --- |
| GCCTAGCACTCAAGTGTCAATAATGACACTGTGCTAGTCTTGATTCGCTTGACGCTGCTG | -0.0799 z-score |
